Assay results gathered from unrelated publications.
Parts stem from different laboratories: compare values within a part only.

Sample 1 — technique: aptamer microarray, sandwich; form: DNA with 2'F-ANA; matrix: in vitro; concentration: 200 nM; together with: Cy3 exosite-II aptamer, 400 nM; direction: higher = stronger binding; measurement: mean fluorescence intensity
Target: Prothrombin, mature alpha-thrombin (F2, Homo sapiens, UniProt P00734)
Notes: whole 15-mer aptamer, many near background
Sequence = GGTTGGTGTGGTTGG (2'F-ANA at 1 2 3 5 10 12 13); value = 50.4 a.u.
Sequence = GGTTGGTGTGGTTGG (2'F-ANA at 1 4 7 8 10 11 12 15); value = 112 a.u.
Sequence = GGTTGGTGTGGTTGG (2'F-ANA at 1 2 3 5 7 10 14 15); value = 45.8 a.u.
Sequence = GGTTGGTGTGGTTGG (2'F-ANA at 1 3 6 8 9 10 11 14 15); value = 61.2 a.u.

Sample 2 — technique: RNA Bind-n-Seq; form: RNA; matrix: in vitro; concentration: 200 nM; notes: whole 134-nt RNA, ends assumed; together with: 150 mM LiCl; relative to: input library; direction: higher = stronger binding; measurement: log2 enrichment; each molecule: 7-deaza-guanosine replaces G
Target: Ras GTPase-activating protein-binding protein 1, full length (G3BP1, Homo sapiens, UniProt Q13283)
Sequence of UniProt Q13283 (whole entry, looked up): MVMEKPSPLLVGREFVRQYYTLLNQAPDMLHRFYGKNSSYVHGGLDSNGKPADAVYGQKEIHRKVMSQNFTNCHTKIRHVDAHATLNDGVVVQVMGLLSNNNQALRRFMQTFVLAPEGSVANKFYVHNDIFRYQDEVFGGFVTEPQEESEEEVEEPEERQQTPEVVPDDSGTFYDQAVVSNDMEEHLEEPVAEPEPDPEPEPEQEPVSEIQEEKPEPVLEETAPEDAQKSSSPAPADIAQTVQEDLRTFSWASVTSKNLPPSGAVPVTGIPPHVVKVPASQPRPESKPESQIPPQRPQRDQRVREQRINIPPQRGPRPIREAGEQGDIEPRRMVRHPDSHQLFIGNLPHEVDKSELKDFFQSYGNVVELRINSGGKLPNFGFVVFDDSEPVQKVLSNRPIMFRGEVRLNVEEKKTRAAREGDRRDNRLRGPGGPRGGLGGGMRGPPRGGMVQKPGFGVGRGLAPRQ
Sequence = GGGAGUUCUACAGUCCGACGAUCGUAGAAAUUCAUGUAUAAAUGGAACCAUAUAGUACAUACAUAUCAUACUCUUAGGUCUGGCAAAUAUUUGAGGUUCAUCCAUAUUUUAUAUGGAAUUCUCGGGUGUCAAGG; value = -1.9
Sequence = GGGAGUUCUACAGUCCGACGAUCGUCCUGUGCUACACAUCGUAUGUACCGAAUCGGGGCCCCCGGGGCCCCCGGGCCCCCGGAAAGUAUUAUGUUACGCCGUUCGGAUCUGCAUGGAAUUCUCGGGUGUCAAGG; value = -1.65
Sequence = GGGAGUUCUACAGUCCGACGAUCCCUGUGCUACACAUCGUAUGUACCGAAUCGGGGUUUUUGGGGAAAAAGGGGUUUUUGGGGAAAGUAUUAUGUUACGCCGUUCGGAUCUGCUGGAAUUCUCGGGUGUCAAGG; value = -0.474
Sequence = GGGAGUUCUACAGUCCGACGAUCAGUCCUGUGCUACACAUCGUAUGUACCGAAUCGGGGAAAAAGGAAAAAGGAAAAAGGGAAAGUAUUAUGUUACGCCGUUCGGAUCUGCACUGGAAUUCUCGGGUGUCAAGG; value = -0.589

Other studies, line by line
Substance = PhoQ, residues 284 288 289 292 302 303 ALASRC; target = PhoP, residues 12 14 15 18 19 SPWRL (Escherichia coli, UniProt P23836); assay = Sort-seq, refers to: YFP reporter; test system = E. coli; conditions = PhoQ-PhoP variant library, together with: 10 µM Mg2+; how to read = relative to: high Mg2+ state, higher = stronger signaling; measurement = fold induction; value = 0.439
Substance = AGAGTCAG; target = Histone acetyltransferase KAT6A, both winged helices, GST fusion (KAT6A, Homo sapiens, UniProt Q92794, residues 1-181); assay = protein binding microarray; test system = double-stranded DNA, one strand shown, in vitro; conditions = not given, 8-mer, flanks averaged, mean of 2 arrays, mostly near background; how to read = relative to: not given, higher = stronger binding; measurement = E-score; value = -0.00176

Repeated from above (sample 2):
Sequence = GGGAGUUCUACAGUCCGACGAUCCCUGUGCUACACAUCGUAUGUACCGAAUCGGGGUUUUUGGGGAAAAAGGGGUUUUUGGGGAAAGUAUUAUGUUACGCCGUUCGGAUCUGCUGGAAUUCUCGGGUGUCAAGG; value = -0.474
